Experimental data pooled from the literature.
Parts stem from different laboratories: compare values within a part only. Numbers after ± are the reported error.
Sequence of UniProt Q12809 (whole entry, looked up): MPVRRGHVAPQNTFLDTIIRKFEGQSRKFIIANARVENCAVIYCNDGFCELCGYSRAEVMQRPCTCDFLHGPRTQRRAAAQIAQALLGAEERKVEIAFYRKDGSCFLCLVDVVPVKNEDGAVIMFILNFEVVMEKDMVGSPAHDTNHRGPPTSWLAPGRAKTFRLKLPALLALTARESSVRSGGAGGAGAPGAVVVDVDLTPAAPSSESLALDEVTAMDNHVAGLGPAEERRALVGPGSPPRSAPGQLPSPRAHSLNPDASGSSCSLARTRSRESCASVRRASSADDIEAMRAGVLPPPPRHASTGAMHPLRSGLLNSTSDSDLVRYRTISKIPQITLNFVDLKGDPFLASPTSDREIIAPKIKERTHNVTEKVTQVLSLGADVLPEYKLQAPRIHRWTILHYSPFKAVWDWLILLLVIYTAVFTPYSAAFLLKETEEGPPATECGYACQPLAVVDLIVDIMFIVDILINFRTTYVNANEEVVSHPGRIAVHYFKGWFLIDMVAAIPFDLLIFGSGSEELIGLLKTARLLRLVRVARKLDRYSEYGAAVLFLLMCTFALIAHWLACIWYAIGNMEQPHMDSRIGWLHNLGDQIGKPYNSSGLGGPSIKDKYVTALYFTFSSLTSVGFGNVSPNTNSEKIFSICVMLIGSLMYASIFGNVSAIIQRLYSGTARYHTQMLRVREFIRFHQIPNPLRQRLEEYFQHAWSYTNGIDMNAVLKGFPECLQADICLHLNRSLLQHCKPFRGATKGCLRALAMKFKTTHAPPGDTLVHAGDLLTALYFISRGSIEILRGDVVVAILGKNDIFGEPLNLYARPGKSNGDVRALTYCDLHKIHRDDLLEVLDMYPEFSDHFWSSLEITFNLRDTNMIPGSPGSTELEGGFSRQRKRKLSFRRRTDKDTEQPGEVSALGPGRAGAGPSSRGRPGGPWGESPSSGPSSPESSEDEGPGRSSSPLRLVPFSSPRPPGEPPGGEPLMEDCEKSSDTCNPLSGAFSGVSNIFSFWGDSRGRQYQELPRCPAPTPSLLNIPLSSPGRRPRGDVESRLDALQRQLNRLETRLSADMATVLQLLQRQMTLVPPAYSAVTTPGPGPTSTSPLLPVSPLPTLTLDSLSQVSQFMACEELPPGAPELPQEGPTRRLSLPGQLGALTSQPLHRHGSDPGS
Sequence of UniProt P03300 (whole entry, looked up): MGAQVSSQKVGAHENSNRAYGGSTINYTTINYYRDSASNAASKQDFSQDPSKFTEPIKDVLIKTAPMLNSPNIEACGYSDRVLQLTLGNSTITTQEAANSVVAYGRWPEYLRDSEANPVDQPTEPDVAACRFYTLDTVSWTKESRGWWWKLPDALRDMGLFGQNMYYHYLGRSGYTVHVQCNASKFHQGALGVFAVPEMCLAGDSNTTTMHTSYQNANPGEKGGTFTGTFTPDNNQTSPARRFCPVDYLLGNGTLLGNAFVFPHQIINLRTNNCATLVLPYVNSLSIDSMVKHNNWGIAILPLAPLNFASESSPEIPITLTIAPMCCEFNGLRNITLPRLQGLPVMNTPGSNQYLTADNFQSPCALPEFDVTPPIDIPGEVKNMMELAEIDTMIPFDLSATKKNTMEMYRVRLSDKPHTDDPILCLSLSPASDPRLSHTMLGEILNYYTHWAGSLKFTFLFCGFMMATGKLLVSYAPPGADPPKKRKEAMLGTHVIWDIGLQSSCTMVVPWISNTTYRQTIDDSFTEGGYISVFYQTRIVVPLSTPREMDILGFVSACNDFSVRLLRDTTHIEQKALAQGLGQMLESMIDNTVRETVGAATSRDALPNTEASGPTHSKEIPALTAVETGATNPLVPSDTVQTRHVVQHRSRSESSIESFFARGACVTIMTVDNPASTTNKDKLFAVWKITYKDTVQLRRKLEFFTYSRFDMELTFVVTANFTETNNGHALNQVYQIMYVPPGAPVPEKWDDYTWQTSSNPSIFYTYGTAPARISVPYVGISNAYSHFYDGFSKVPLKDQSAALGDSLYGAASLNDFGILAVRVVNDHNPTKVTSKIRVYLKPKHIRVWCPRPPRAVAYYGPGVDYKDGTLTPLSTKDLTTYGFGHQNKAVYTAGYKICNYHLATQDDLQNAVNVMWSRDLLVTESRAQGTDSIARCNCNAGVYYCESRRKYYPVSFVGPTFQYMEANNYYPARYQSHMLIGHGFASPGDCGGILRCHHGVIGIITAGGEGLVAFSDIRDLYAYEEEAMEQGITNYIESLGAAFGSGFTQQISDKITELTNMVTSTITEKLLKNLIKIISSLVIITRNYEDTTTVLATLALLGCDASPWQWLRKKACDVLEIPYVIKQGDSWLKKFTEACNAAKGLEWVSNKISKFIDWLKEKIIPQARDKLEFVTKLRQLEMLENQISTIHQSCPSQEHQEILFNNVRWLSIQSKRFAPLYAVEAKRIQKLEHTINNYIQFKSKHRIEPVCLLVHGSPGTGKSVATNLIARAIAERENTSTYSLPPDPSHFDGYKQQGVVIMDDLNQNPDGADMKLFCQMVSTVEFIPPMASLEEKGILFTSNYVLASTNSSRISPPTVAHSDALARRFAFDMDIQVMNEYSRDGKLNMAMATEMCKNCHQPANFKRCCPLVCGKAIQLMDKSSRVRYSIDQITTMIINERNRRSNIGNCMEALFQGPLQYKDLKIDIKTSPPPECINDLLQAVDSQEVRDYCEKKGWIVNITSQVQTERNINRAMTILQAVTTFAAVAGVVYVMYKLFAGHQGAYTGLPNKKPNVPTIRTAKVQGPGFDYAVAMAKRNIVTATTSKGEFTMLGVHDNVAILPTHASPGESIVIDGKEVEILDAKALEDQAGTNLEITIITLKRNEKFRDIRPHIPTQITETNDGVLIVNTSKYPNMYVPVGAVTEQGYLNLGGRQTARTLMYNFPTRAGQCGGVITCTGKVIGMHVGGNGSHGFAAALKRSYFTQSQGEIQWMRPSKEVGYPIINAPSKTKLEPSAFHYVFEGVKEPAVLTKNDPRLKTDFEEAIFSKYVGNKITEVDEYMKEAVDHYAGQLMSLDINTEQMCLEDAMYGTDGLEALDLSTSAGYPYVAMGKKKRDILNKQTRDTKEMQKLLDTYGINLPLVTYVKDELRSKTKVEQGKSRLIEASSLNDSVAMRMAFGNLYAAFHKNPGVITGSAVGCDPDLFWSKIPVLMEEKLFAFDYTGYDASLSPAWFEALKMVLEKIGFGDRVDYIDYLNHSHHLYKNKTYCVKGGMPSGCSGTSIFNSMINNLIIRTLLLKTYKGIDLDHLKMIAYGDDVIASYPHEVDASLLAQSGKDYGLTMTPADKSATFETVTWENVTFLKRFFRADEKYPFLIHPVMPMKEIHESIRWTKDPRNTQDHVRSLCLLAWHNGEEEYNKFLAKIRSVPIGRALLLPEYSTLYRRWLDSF
Sequence of UniProt P10635 (whole entry, looked up): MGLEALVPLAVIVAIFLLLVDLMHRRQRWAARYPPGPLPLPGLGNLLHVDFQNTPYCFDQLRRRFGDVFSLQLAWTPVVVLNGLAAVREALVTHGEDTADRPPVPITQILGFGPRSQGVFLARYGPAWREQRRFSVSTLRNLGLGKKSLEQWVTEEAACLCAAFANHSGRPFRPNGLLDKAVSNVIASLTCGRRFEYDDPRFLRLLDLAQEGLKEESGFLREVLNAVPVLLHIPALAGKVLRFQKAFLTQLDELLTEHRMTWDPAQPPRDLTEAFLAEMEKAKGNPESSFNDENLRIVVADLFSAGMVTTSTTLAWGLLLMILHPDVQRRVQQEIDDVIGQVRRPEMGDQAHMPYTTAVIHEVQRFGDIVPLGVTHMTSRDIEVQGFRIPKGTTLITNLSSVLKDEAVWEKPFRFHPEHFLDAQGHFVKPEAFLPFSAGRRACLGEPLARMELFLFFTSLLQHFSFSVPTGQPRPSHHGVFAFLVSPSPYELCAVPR

Study 1
Target: Replicase polyprotein 1ab, main protease (rep, Severe acute respiratory syndrome coronavirus 2, UniProt P0DTD1)
Effect on: enzyme activity
Action: inhibitor
Tested at: 20 µM
Setting: hit confirmation, no DTT
With `O=C(O)c1ccc(N2C(=O)/C(=C\c3ccc(-c4ccc([N+](=O)[O-])cc4)o3)C=C2c2ccccc2)cc1` the inhibition was 51.1%.
With `COc1ccc2[n-]c([S@@+]([O-])Cc3ncc(C)c(OC)c3C)nc2c1.COc1ccc2[n-]c([S@@+]([O-])Cc3ncc(C)c(OC)c3C)nc2c1.O.O.O.[Mg+2]` the inhibition was 99.7%.
`C[C@@H]1O[C@@H](O[C@@H]2[C@@H](O)[C@H](OCCc3ccc(O)c(O)c3)O[C@H](CO)[C@H]2OC(=O)/C=C/c2ccc(O)c(O)c2)[C@H](O)[C@H](O)[C@H]1O` has an inhibition of 95.4%.
`CCCC[C@H](NC(=O)[C@@H]1[C@@H]2[C@H](CN1C(=O)[C@@H](NC(=O)NC1(CS(=O)(=O)C(C)(C)C)CCCCC1)C(C)(C)C)C2(C)C)C(=O)C(=O)NC1CC1` gave an inhibition of 55.3%.

Study 2
Cell line: HEK-293T
Effect on: pseudovirus infection
Method: FDA-approved drug library screen
Organism: VSV pseudotyped with SARS-CoV-2 spike
Tested at: 10 µM
Time: 16 h
Baseline: vehicle-treated
The GFP-positive cells of `NS(=O)(=O)c1cc(C2(O)NC(=O)c3ccccc32)ccc1Cl` (centres unmarked) is reported as 73.2%.
With `CO/N=C(\C(=O)N[C@@H]1C(=O)N2C(C(=O)O)=C(COC(C)=O)CS[C@H]12)c1csc(N)n1` the GFP-positive cells was 115%.
`CC(C)OC(=O)CCC/C=C\C[C@@H]1[C@@H](CC[C@@H](O)CCc2ccccc2)[C@H](O)C[C@@H]1O` gave a GFP-positive cells of 121%.

Study 3
Target: Replicase polyprotein 1ab, nsp13 helicase (rep, Severe acute respiratory syndrome coronavirus 2, UniProt P0DTD1)
Action: inhibitor
Tested at: 20 µM
The inhibition of `CNC(=O)CN1CCC(Oc2cc3c(Nc4cccc(Cl)c4F)ncnc3cc2OC)CC1` is reported as 4.4%.
`CC(C)(O)CNc1nc(Nc2ccnc(C(F)(F)F)c2)nc(-c2cccc(C(F)(F)F)n2)n1` gave an inhibition of 4.15%.
With `COCCCN1CCC(NC(=O)c2cc(Cl)c(N)c3c2OCC3)CC1` the inhibition was 5.04%.
For `CCN(CC)CCNC(=O)c1cc(S(C)(=O)=O)ccc1OC`, the inhibition was -0.31%.
`CC(=O)N[C@@H]1[C@@H](O)[C@H](O)[C@@H](CO)O[C@@H]1O` has an inhibition of 3.74%.
With `O=C(O)Cc1nn(Cc2nc3cc(C(F)(F)F)ccc3s2)c(=O)c2ccccc12` the inhibition was 2.29%.
`CCCCCCCC[N+](C)(C)Cc1ccccc1` has an inhibition of -0.34%.
`Cc1c(CN(C)C(=O)/C=C/c2cnc3c(c2)CCC(=O)N3)oc2ccccc12` has an inhibition of -1.43%.
With `Cc1ccc(-c2ncn(-c3ccc(Nc4nccc(-c5cccc(N6CCOCC6)c5)n4)cc3)n2)cn1` the inhibition was 3.63%.
With `CC[C@H](C)[C@H](NC(=O)[C@H](Cc1ccc(O)cc1)NC(=O)[C@@H](NC(=O)[C@H](CCCNC(=N)N)NC(=O)[C@@H](N)CC(=O)O)C(C)C)C(=O)N[C@@H](Cc1cnc[nH]1)C(=O)N1CCC[C@H]1C(=O)N[C@@H](Cc1ccccc1)C(=O)O` the inhibition was 6.08%.
The inhibition of `C[C@@H](O)[C@@H]1NC(=O)[C@H](CCCCN)NC(=O)[C@@H](Cc2c[nH]c3ccccc23)NC(=O)[C@H](Cc2ccccc2)NC(=O)[C@@H](NC(=O)[C@H](N)Cc2ccccc2)CSSC[C@@H](C(=O)N[C@H](CO)[C@@H](C)O)NC1=O` is reported as 3.9%.
`CCC(Oc1ccc(Cl)cc1)C(=O)OC1C[C@H]2CC[C@@H](C1)N2C` (some centres unmarked) gave an inhibition of -2.78%.
The inhibition of `CCCN[C@H]1CCc2nc(N)sc2C1` is reported as 3.37%.
With `C[C@@H](NC(=O)c1ncnc(N)c1Cl)c1ncc(C(=O)Nc2cc(C(F)(F)F)c(Cl)cn2)s1` the inhibition was 4.62%.
For `CC[C@@]1(O)C(=O)OCc2c1cc1n(c2=O)Cc2cc3ccccc3nc2-1`, the inhibition was 1.11%.
The inhibition of `CC(=O)OCC(=O)[C@@]1(O)CC[C@H]2[C@@H]3CCC4=CC(=O)CC[C@]4(C)[C@H]3[C@@H](O)C[C@@]21C` is reported as 2.13%.
For `C/C(=N\NC(=O)[C@H]1C(=O)NC[C@@H]1c1ccccc1)c1cccc(Br)c1`, the inhibition was 7.54%.
`Cc1cccc(NC(=O)CN2CCC(c3ccccn3)CC2)c1` has an inhibition of 7.92%.
The inhibition of `Oc1ccc2c3c1O[C@H]1c4[nH]c5c(c4C[C@@]4(O)[C@@H](C2)N(CC2CC2)CC[C@]314)C[C@@]1(O)[C@H]2Cc3ccc(O)c4c3[C@@]1(CCN2CC1CC1)[C@H]5O4` is reported as 16.2%.
`COc1ccc(-c2ccc3c(N4CCOC[C@@H]4C)nc(N4CCOC[C@@H]4C)nc3n2)cc1CO` gave an inhibition of 1.11%.
The inhibition of `O=C(O)CCCCCCNC1c2ccccc2CCc2ccccc21` is reported as 4.17%.
`C[C@H](CCC(=O)O)[C@H]1CC[C@H]2[C@@H]3CC[C@@H]4C[C@H](O)CC[C@]4(C)[C@H]3C[C@H](O)[C@]12C` gave an inhibition of -2.21%.

Other studies, line by line
rep main protease: Replicase polyprotein 1ab, main protease (rep, Severe acute respiratory syndrome coronavirus 2, UniProt P0DTD1)
`O=C1[C@H]2CSC3(C(=O)c4ccccc4C3=O)N2C(=O)[C@H]2CSC3(C(=O)c4ccccc4C3=O)N12` has an inhibition of -0.459% (rep main protease; viral replication, mKate2 reporter; SARS-CoV-2; 20 µM).
`CC(=O)c1c(O)c(C)c(O)c(Cc2c(O)c3c(c(C(=O)/C=C/c4ccccc4)c2O)OC(C)(C)C=C3)c1O` — result for “slow deactivation time constant”: 126 ± 19 ms (KCNH2 (Homo sapiens, UniProt Q12809); ion current, whole-cell patch clamp; HEK293 expressing hERG1; 4 µM, at -120 mV).
For `CCOC(=O)CC(SP(=S)(OC)OC)C(=O)OCC` (centres unmarked), “nuclear SOX9 intensity” read 88.7 % of DMSO (mouse MPNST tumor cells; high-content immunofluorescence imaging, measured: nuclear SOX9; 10 µM, 12 h, mean of 2 replicates; baseline: DMSO control, higher = more nuclear SOX9).
With `daurisoline` the inhibition was -0.782% (rep main protease; enzyme activity, Gaussia luciferase reporter; SARS-CoV-2; 20 µM).
The IC50 of `NC[C@H]1OB(O)c2c(OCCCO)cccc21` is reported as greater than 2 µM (SARS-CoV-2; viral replication; Huh-7).
With `COCCNC(=O)C1CCCN(C2CCN(C(=O)c3cccnn3)CC2)C1` (centres unmarked) the remaining activity was 62% (Lassa mammarenavirus; viral replication; Huh-7; 10 µM, 72 h).
For `O=C1NC(=S)N(c2ccccc2)C(=O)/C1=C/c1ccc(-c2ccc(C(=O)O)c(Cl)c2)o1`, the IC50 was 40 µM (Replicase polyprotein 1ab, nsp13 helicase (rep, Severe acute respiratory syndrome coronavirus 2, UniProt P0DTD1); helicase ATPase activity, inhibitor, Kinase-Glo luminescence; 60 min, with: 2.5 µM ATP).
For `Nc1ncnc2c1ncn2[C@@H]1O[C@H](COP(=O)(O)OP(=O)(O)OP(=O)(O)O)[C@@H](O)[C@H]1O`, the Kd was 5 ± 1 µM (Genome polyprotein, 3D RNA polymerase (Human poliovirus 1 Mahoney, UniProt P03300)).
`Cc1cncc(CC(=O)N2CC3(CC[C@H](CNC(=O)[C@@]4(O)CCc5ccccc5C4)O3)C2)c1` has an inhibition of 13% (rep main protease; enzyme activity, inhibitor; 5 µM, run 2).
The IC50 of `O=C(CSc1nc2ccccc2c(=O)[nH]1)Nc1ccccc1C(=O)O` is reported as 104 µM (SARS-CoV-2; viral cytopathic effect; Vero E6, NRC-03-nhCoV).
`Nc1ncnc2c([C@@H]3N[C@H](CO)[C@@H](O)[C@H]3O)c[nH]c12` gave an inhibition of 74% (Marburg virus; viral replication; HeLa, Musoke; 6.3 µM).
With `C=C(C)[C@@H]1[C@H]2OC(=O)[C@@H]1[C@]1(O)C[C@H]3O[C@]34C(=O)O[C@H]2[C@]14C` the nuclei count was 0.775 z-score (mouse MPNST tumor cells; high-content nuclear imaging, measured: cell number; 10 µM, 12 h, mean of 2 replicates; baseline: plate mean, higher = more cells).
`Cn1cnc(Cn2c(=O)[nH]/c(=N\c3cc4cn(C)nc4cc3Cl)n(Cc3cc(F)c(F)cc3F)c2=O)n1` has an IC50 of greater than 100 µM (Cytochrome P450 2D6 (CYP2D6, Homo sapiens, UniProt P10635); inhibitor; human liver microsomes; 0 min preincubation, with: dextromethorphan 10 µM).
`CC(C)(C)NCC(O)COc1cccc2[nH]c(C#N)cc12` (centres unmarked): “nuclear SOX9 intensity” 96.5 % of DMSO (mouse MPNST tumor cells; high-content immunofluorescence imaging, measured: nuclear SOX9; 10 µM, 12 h, mean of 2 replicates; baseline: DMSO control, higher = more nuclear SOX9).
`NC(=O)c1ccc(/C=C/C(=O)N2C[C@H]3CCC[C@@H](C2)N3C(=O)CCn2c(O)ccc2O)cc1` gave an inhibition of 12.5% (rep main protease; enzyme activity, inhibitor; 5 µM, run 2).

Repeated from above (other studies, line by line):
`Nc1ncnc2c([C@@H]3N[C@H](CO)[C@@H](O)[C@H]3O)c[nH]c12` gave an inhibition of 74% (Marburg virus; viral replication; HeLa, Musoke; 6.3 µM).
For `CCOC(=O)CC(SP(=S)(OC)OC)C(=O)OCC` (centres unmarked), “nuclear SOX9 intensity” read 88.7 % of DMSO (mouse MPNST tumor cells; high-content immunofluorescence imaging, measured: nuclear SOX9; 10 µM, 12 h, mean of 2 replicates; baseline: DMSO control, higher = more nuclear SOX9).
`CC(C)(C)NCC(O)COc1cccc2[nH]c(C#N)cc12` (centres unmarked): “nuclear SOX9 intensity” 96.5 % of DMSO (mouse MPNST tumor cells; high-content immunofluorescence imaging, measured: nuclear SOX9; 10 µM, 12 h, mean of 2 replicates; baseline: DMSO control, higher = more nuclear SOX9).
With `daurisoline` the inhibition was -0.782% (rep main protease; enzyme activity, Gaussia luciferase reporter; SARS-CoV-2; 20 µM).
With `C=C(C)[C@@H]1[C@H]2OC(=O)[C@@H]1[C@]1(O)C[C@H]3O[C@]34C(=O)O[C@H]2[C@]14C` the nuclei count was 0.775 z-score (mouse MPNST tumor cells; high-content nuclear imaging, measured: cell number; 10 µM, 12 h, mean of 2 replicates; baseline: plate mean, higher = more cells).
`NC(=O)c1ccc(/C=C/C(=O)N2C[C@H]3CCC[C@@H](C2)N3C(=O)CCn2c(O)ccc2O)cc1` gave an inhibition of 12.5% (rep main protease; enzyme activity, inhibitor; 5 µM, run 2).
The IC50 of `O=C(CSc1nc2ccccc2c(=O)[nH]1)Nc1ccccc1C(=O)O` is reported as 104 µM (SARS-CoV-2; viral cytopathic effect; Vero E6, NRC-03-nhCoV).
